Assay results from different studies.
Protocols differ between the studies behind these lines. pKi: −log10 of the molar value.
ADRA1B: Alpha-1B adrenergic receptor (ADRA1B, Homo sapiens, UniProt P35368)
Chain of UniProt P35368 (whole entry, unmodified, looked up): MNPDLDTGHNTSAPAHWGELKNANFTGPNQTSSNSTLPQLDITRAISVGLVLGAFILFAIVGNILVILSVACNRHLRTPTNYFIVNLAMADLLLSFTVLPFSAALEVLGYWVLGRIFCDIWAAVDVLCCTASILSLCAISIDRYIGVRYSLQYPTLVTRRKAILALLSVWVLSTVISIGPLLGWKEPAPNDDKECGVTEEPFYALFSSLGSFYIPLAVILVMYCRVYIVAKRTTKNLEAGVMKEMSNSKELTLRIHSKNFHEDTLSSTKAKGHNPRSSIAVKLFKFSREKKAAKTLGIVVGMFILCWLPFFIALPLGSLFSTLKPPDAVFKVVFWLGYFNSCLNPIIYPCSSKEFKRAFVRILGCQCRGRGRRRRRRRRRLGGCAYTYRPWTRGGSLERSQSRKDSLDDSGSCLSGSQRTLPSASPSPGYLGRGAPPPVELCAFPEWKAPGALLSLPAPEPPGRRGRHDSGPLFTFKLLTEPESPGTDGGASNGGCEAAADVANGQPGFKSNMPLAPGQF
PLEKHA3: PLEKHA3 (Homo sapiens, UniProt Q9HB20)
Chain of UniProt Q9HB20 (whole entry, looked up): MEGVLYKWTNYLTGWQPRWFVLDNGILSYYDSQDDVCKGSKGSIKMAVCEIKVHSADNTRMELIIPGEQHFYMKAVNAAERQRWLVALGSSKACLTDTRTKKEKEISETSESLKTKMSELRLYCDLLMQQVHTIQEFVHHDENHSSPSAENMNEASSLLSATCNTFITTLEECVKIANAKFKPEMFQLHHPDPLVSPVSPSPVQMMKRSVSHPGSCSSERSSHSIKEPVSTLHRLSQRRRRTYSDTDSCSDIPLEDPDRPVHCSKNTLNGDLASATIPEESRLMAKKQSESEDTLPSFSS
SLC6A3: Sodium-dependent dopamine transporter (SLC6A3, Homo sapiens, UniProt Q01959)
Chain of UniProt Q01959 (whole entry, looked up): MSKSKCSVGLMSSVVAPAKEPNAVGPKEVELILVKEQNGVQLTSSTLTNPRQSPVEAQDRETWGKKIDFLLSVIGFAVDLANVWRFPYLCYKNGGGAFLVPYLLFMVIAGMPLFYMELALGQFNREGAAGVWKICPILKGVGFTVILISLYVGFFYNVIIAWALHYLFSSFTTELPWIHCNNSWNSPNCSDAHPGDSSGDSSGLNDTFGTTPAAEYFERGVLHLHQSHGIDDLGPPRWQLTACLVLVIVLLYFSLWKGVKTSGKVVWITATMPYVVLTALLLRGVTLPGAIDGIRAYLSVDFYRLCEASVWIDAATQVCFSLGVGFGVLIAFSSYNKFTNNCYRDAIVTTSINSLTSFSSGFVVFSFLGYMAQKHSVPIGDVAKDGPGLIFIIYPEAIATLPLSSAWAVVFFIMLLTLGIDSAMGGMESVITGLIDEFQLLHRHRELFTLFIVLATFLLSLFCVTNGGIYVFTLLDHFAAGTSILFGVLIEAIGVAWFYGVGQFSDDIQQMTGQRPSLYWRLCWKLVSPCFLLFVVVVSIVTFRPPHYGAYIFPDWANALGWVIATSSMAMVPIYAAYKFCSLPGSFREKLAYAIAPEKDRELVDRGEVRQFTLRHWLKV
HTR2B: 5-hydroxytryptamine receptor 2B (HTR2B, Homo sapiens, UniProt P41595)
Chain of UniProt P41595 (whole entry, looked up): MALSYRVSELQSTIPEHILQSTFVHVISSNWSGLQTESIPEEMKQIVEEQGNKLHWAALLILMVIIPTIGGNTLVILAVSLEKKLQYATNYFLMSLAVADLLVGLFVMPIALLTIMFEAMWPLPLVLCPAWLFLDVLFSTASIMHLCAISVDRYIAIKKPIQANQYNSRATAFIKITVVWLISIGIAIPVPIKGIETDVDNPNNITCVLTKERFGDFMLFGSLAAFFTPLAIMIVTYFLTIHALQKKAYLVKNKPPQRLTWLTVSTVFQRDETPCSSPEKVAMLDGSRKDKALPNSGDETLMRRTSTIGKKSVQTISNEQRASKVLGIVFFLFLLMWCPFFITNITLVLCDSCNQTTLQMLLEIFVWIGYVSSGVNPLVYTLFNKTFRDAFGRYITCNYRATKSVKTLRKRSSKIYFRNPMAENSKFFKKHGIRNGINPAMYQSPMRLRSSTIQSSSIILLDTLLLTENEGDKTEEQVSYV
Chain of UniProt P48039 (whole entry, looked up): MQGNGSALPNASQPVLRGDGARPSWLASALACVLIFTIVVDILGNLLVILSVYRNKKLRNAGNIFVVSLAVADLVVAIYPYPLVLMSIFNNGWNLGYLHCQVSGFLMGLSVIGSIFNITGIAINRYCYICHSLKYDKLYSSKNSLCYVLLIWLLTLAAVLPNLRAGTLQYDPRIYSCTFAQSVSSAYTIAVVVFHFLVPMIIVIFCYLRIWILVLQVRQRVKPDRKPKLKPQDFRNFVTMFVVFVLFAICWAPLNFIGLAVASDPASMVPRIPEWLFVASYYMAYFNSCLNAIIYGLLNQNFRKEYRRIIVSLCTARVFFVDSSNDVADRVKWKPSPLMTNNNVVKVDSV
Chain of UniProt Q92769 (whole entry, looked up): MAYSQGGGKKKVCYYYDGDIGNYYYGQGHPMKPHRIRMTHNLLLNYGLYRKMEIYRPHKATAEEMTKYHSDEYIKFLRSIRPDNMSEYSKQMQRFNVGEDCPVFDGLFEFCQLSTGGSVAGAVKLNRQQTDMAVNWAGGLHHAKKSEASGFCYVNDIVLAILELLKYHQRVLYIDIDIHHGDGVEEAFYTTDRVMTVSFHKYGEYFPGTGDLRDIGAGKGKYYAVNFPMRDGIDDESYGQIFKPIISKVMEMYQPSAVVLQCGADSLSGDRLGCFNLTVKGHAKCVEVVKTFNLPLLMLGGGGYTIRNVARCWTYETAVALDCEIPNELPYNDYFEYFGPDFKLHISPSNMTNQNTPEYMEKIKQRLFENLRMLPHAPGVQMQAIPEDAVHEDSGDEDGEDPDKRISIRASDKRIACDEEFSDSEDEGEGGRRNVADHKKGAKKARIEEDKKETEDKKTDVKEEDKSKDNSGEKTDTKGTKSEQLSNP
Chain of UniProt P10632 (whole entry, looked up): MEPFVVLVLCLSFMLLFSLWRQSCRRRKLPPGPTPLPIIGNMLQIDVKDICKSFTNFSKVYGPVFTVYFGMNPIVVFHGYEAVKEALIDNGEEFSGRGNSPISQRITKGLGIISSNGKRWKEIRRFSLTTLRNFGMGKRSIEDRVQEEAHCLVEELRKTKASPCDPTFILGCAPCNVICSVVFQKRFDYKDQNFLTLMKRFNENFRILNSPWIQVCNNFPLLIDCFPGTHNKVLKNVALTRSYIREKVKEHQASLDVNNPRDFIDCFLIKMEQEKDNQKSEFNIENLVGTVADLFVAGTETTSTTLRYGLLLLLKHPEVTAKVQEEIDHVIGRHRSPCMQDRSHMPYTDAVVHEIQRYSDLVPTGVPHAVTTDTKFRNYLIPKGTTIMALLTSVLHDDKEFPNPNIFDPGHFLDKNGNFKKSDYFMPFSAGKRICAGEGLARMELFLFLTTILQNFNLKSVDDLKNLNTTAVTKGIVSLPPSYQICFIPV
Chain of UniProt P30542 (whole entry, looked up): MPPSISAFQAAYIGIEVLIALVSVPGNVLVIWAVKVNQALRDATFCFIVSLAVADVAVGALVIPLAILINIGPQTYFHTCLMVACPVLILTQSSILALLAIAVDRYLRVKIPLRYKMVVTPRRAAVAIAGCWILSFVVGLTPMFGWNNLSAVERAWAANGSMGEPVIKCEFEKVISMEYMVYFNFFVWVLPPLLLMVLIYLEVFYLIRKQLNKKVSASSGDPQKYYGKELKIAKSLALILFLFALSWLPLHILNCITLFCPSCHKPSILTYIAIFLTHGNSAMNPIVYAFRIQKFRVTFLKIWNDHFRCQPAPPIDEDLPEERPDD
Chain of UniProt P08913 (whole entry, looked up): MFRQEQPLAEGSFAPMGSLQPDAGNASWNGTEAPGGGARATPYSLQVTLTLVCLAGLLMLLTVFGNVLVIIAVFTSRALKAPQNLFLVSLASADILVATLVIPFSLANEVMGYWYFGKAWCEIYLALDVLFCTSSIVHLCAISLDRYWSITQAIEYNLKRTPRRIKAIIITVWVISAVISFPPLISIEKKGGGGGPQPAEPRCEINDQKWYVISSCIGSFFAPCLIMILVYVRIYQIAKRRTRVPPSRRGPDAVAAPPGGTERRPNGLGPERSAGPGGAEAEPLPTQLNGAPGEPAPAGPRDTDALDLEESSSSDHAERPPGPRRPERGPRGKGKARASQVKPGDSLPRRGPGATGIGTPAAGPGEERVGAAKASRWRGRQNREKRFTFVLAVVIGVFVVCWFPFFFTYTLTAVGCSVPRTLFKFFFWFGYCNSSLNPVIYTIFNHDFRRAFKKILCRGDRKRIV

target | assay | test system | pKi | Compound
ADRA1B | ligand displacement, radioligand |  | 5.54 | COc1ccc(N2CCN(Cc3cccnc3Oc3ccc(-c4c(C)c(=O)[nH]c(=O)n4C)c(C)c3)CC2)cc1
PLEKHA3 | ligand displacement, FP |  | 5.25 | C#CCOc1cccc(C(=O)CC(SCc2cccc(Br)c2)C(=O)O)c1 (stereo not shown)
SLC6A3 | ligand displacement, radioligand |  | 5.92 | CCOC(=O)[C@@]12C[C@@H]1[C@@H](n1cnc3c(NCCCCCCc4ccccc4)nc(I)nc31)[C@H](O)[C@@H]2O
HTR2B | ligand displacement, radioligand |  | 7.71 | N#C[C@@]12C[C@@H]1[C@@H](n1cnc3c(NC45CC(C4)C5)nc(I)nc31)[C@H](O)[C@@H]2O
PLEKHA3 | ligand displacement, FP |  | 4.74 | CCOC(=O)c1cc(-c2ccc(OCC)cc2)oc1-c1ccc(Cl)cc1
ADRA1B | ligand displacement, radioligand |  | 5.52 | Cc1cc(Oc2ncccc2CN2CCN(c3ccccc3)CC2)ccc1-c1c(C)c(=O)[nH]c(=O)n1C
Alpha-1B adrenergic receptor (ADRA1B, Homo sapiens, UniProt P35368, V197I) | ligand displacement in cells, flow cytometry |  | 3.74 | Cc1ccc2oc(=O)cc(NCCO)c2c1
Adenosine receptor A1 (ADORA1, Homo sapiens, UniProt P30542) | ligand displacement, radioligand |  | < 5.00 | N#C[C@@]12C[C@@H]1[C@@H](n1cnc3c(N[C@@H](C4CCC4)C4CC4)nc(I)nc31)[C@H](O)[C@@H]2O
Alpha-2A adrenergic receptor (ADRA2A, Homo sapiens, UniProt P08913) | ligand displacement, radioligand |  | 5.50 | Cc1cc(Oc2ncccc2CN2CCN(c3ccc(C(F)(F)F)cc3[N+](=O)[O-])CC2)ccc1-c1c(C)c(=O)[nH]c(=O)n1C
Cytochrome P450 2C8 (CYP2C8, Homo sapiens, UniProt P10632) | enzyme activity, inhibitor | human, liver microsomes | 5.94 | Cn1cncc1[C@@](N)(c1ccc(Cl)cc1)c1ccc2c(c1)c(-c1cccc(Cl)c1)cc(=O)n2C
Melatonin receptor type 1A (MTNR1A, Homo sapiens, UniProt P48039) | cell-free assay |  | 6.07 | CC(C)c1ccc(CNc2cccc(-c3nnc[nH]3)c2)cc1
Histone deacetylase 2 (HDAC2, Homo sapiens, UniProt Q92769) | enzyme activity, inhibitor, fluorescence |  | 6.47 | O=C(NO)c1cncc(OS(=O)(=O)Oc2ccc3ccccc3c2)c1
ADRA1B | ligand displacement, radioligand |  | 5.99 | Cc1ccc(N2CCN(Cc3cccnc3Oc3ccc(-c4c(C)c(=O)[nH]c(=O)n4C)c(C)c3)CC2)cc1C
HTR2B | ligand displacement, radioligand |  | 7.87 | N#C[C@@]12C[C@@H]1[C@@H](n1cnc3c(N[C@@H]4CCC(F)(F)C4)nc(I)nc31)[C@H](O)[C@@H]2O
SLC6A3 | ligand displacement, radioligand |  | 5.28 | CCOC(=O)C12CC1C(n1ccc3c(NCCCc4ccccc4)nc(C#Cc4ccc(Cl)s4)nc31)C(O)C2O (stereo not shown)
ADRA1B | ligand displacement, radioligand |  | 6.02 | Cc1cc(Oc2ncccc2CN2CCN(c3ccccc3Cl)CC2)ccc1-c1c(C)c(=O)[nH]c(=O)n1C

A few entries again:
target | assay | test system | pKi | Compound
ADRA1B | ligand displacement, radioligand |  | 6.02 | Cc1cc(Oc2ncccc2CN2CCN(c3ccccc3Cl)CC2)ccc1-c1c(C)c(=O)[nH]c(=O)n1C
Cytochrome P450 2C8 (CYP2C8, Homo sapiens, UniProt P10632) | enzyme activity, inhibitor | human, liver microsomes | 5.94 | Cn1cncc1[C@@](N)(c1ccc(Cl)cc1)c1ccc2c(c1)c(-c1cccc(Cl)c1)cc(=O)n2C
